Results of several laboratories.
Every numbered part comes from another study and shows a few of its results, in no order. Positions count from the first letter of the parent shown.

Study 1
Target: ABI1, truncated, D143A, DHFR fusion (Arabidopsis thaliana)
Method: DHFR PCA, deep sequencing
Medium: yeast
Notes: methotrexate growth selection, single substitutions
Added: (+)-ABA 0.39 µM
Baseline: wild-type fitted maximum
Direction: higher = stronger binding
Quantity: relative binding score
Starting sequence: PYL1, truncated, DHFR fusion (Arabidopsis thaliana); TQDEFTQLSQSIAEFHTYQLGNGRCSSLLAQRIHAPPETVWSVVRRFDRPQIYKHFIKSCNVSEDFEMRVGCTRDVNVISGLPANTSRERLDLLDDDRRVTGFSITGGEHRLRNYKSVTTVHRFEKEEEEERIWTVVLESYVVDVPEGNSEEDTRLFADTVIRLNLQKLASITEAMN
L169P: 2.5%
E38G: 5.68%
R32H: 28.6%
N61F: 41.5%
V143F: 2.91%
L93C: 22.6%
T39I: 52.3%
L94Q: -16.6%
V118R: 55.4%
A84Q: 20.9%
R90L: -1.31%
K126L: 41.5%
R123F: 3.34%
E174P: -5.56%
L164I: 7.16%
T154F: -43.5%
V43T: 5.8%
L138W: 1.64%
T120F: -7.16%
D92F: -9.49%
A158I: 63.9%
Y53E: 1.04%
I133G: 61.5%
R98N: 23.4%
R98Q: 18%

Study 2
Target: CCND3, cyclin fold, Cln2 fusion (human)
Method: yeast growth competition, sequencing
Medium: yeast
Notes: weak parent motif
Baseline: not given
Direction: higher = stronger binding
Quantity: normalised enrichment score
Starting sequence: CDC25A docking peptide (human); PPHRRRLLFACSP; partner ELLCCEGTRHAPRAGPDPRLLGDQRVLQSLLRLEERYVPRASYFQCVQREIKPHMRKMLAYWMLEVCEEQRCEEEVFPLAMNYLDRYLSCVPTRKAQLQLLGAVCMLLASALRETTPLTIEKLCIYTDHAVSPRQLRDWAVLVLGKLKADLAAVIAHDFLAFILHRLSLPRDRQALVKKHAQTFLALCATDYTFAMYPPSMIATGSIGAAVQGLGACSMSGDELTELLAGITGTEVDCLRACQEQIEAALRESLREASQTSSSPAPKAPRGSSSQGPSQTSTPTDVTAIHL
PPHRFRLLFACSP [R5F]: 0.168
PPHRRRLLFGCSP [A10G]: 0.156
PPHTRRLLFACSP [R4T]: 0.151
PPHRRRLLFACSQ [P13Q]: 0.171
PPHRRWLLFACSP [R6W]: 0.226
PPHRRRLLFACSC [P13C]: 0.146
PPHRRRLLFACPP [S12P]: 0.13
PPHRRRLLFACSV [P13V]: 0.124
PPHRMRLLFACSP [R5M]: 0.144
PPHRWRLLFACSP [R5W]: 0.0936
PPHRRRELFACSP [L7E]: 0.14
PPHRRRLLRACSP [F9R]: 0.229
PPHRRYLLFACSP [R6Y]: 0.0584
PPHRRRLCFACSP [L8C]: 0.0985
PVHRRRLLFACSP [P2V]: 0.0734
PPHRRRLLEACSP [F9E]: 0.109
PPTRRRLLFACSP [H3T]: 0.0824
HPHRRRLLFACSP [P1H]: 0.156
PPHRRRLSFACSP [L8S]: 0.0535
PPHRRRLLFAWSP [C11W]: 0.0897
PPHRRRLLFWCSP [A10W]: 0.165
SPHRRRLLFACSP [P1S]: 0.1
PPHRRRLLFACDP [S12D]: 0.0908

Study 3
Target: CREB3, bZIP domain (human)
Method: DHFR protein complementation
Medium: yeast
Notes: single substitutions, most at no-binding floor
Baseline: wild-type JUN-FOS pair
Direction: higher = stronger binding
Quantity: binding fitness
Starting sequence: JUN, bZIP domain (human); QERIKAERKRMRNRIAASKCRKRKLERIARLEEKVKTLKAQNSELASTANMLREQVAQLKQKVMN; partner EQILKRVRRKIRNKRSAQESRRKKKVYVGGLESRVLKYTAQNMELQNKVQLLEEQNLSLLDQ
Q55H: -1.54 natural log
Q55I: -1.55 natural log
Q55V: -1.43 natural log
V56P: -1.5 natural log
K39L: -1.53 natural log
T37W: -1.48 natural log
K34T: -1.4 natural log
A57S: -1.5 natural log
I28C: -1.51 natural log
A49M: -1.43 natural log
M51V: -1.38 natural log
I28H: -1.52 natural log
L38T: -1.53 natural log
S47Y: -1.45 natural log
L31Y: -1.43 natural log
A40W: -1.42 natural log
E44K: -1.42 natural log
L52C: -1.47 natural log
I28G: -1.37 natural log
E33L: -1.48 natural log
R30W: -1.45 natural log
V35K: -1.51 natural log
K39D: -1.52 natural log
E32R: -1.36 natural log

Study 4
Target: RNA binding protein fox-1 homolog 2, RRM domain, GST-SBP tag (RBFOX2, Homo sapiens, UniProt O43251-10, residues 100-194)
Method: RNA Bind-n-Seq
Molecule type: RNA
Medium: in vitro
Tested at: 365 nM
Notes: natural RNA segment, single round, ends assumed
Baseline: no-protein control
Direction: higher = stronger binding
Quantity: RBNS enrichment (R)
Target sequence (chain): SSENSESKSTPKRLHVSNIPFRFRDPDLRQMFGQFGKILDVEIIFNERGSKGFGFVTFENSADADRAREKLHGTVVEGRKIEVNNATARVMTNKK
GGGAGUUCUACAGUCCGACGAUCUUCCUUUUAUGCUAUCACACACUACUGUCACCGAGACACUGACAAAGUGCUGGGUUCUCCAAGAGCGAUGGCGGCGUCUGUGUAGGUGCUCGCCCACCGUUACCCUCUUCUGGAAUUCUCGGGUGCCAA: 0.606
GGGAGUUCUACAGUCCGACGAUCCAUUUGUUUGGAAUCGUGCCACUGCUGGUCUGCGCCAGAUGUACCGUCCUUUCCAAUACGAUUUUCUGUUGCACCUUGUAGUGGAUUCUGCAUAUCAUCUUUCCCACCUAUGGAAUUCUCGGGUGCCAA: 0.31
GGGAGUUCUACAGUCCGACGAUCGUGGGCAUGGUGGGCAUCCCAUGCAGCACAACCCAAAUGGACCACCACCACCUUGGAUGCAGCCACCACCACCACCGAUGAACCAGGGCCCCCACCCACCUGGGCACCAUUGGAAUUCUCGGGUGCCAA: 0.526
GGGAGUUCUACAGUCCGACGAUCUGAUUGUGUUUCGUAAGAGACAACAUGGCCUCCUAAGGUGCAAUCCUGCCGCUAUAGUGAGCUAAUGUCCUGAAUCCAAAGGCUUCAGAAAAUUGCUUUUGCCUUUUUCAUGGAAUUCUCGGGUGCCAA: 0.343
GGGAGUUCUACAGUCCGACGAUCACCUUCACUGUUUUGAGGGGGGCUGAGACAAGACACCCCCGCUUCUAGGUAUCUUCUAGAGCAGUGAUUCUCAACCUUGCUAAUGCUGUGACCCUUUAAUACAUACAGUUUGGAAUUCUCGGGUGCCAA: 0.536
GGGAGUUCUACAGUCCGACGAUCAAGUGAAGUUCACACCCAGCACCCACAACCUUUAUCAGUCCUCCCGACUCCCCACCCUUUUGCAUUCUGGGAGCCCACAUCUAUUUUUUACACCCCCCCCCACAAGAGGGUGGAAUUCUCGGGUGCCAA: 2.28
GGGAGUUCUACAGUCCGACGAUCGAUCCCCCUAGUUCAUCUUAAAUUUGUCCGUGGCCCUGGCAAGAUAGCGUACACAAGAUUCCAUGACUCCAGAGCAUCUUGAAGAAACAUACAUAUUUUGAAAGAGGGGAUGGAAUUCUCGGGUGCCAA: 0.758
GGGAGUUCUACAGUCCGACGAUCACAGGGAAGACAUUACACUAGUUGAGGCUACCGAACCUUACAUUUUGCUAGAGCUCAAGUAAUAGAAACUUAGUUUCAGAAUCCUGAAUUCAGCACCUAUUUUGAAUUAAUGGAAUUCUCGGGUGCCAA: 0.517
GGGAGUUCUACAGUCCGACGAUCUGAAUAAUUAUUUUUUAAAAAACUUUGUUGUCUCUGUUCUGAGUCUGAAUUCCUUGCAGAUGGUAGCAUUGUCUACCAGUUGGUUCAGUCUCCAUAGGACUUUCAUAUCAUGGAAUUCUCGGGUGCCAA: 0.367
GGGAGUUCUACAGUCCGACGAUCCCUUCCUCCUCCUUUGCCUAGGAGGCCUUCUCGCAUUUUCUCUAGCUGAUCAGAAUUUUACCAAAAUUCAGAACAUCCUCCAAUUCCACAGUCUCUGGGAGACUUUCCCUUGGAAUUCUCGGGUGCCAA: 0.968
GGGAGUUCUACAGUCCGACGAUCCAGGCCCUCAUCUGAGGUAAGAAUGUACAUCAGCUGGCAGCCCCAAGCAAGUGGCUGCAGGGACACUGAUGCCACAGCUCCUGGGCCGGCCCUCACAUCUGAAACUGGUUUGGAAUUCUCGGGUGCCAA: 0.758
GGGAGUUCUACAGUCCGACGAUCGAACCCACCAGGAGCACCACAGAGUCCUCCUCUUGGAAGGCAGAACUCCCUGAAAUCUGGAAUCAGGGUGGAAACAGCCUGUUUUUCCCAUUUAAACAGGAGUCCUCUUCUGGAAUUCUCGGGUGCCAA: 0.283

Repeated from above (study 4):
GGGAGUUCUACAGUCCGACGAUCAAGUGAAGUUCACACCCAGCACCCACAACCUUUAUCAGUCCUCCCGACUCCCCACCCUUUUGCAUUCUGGGAGCCCACAUCUAUUUUUUACACCCCCCCCCACAAGAGGGUGGAAUUCUCGGGUGCCAA: 2.28
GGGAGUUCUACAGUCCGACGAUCCAUUUGUUUGGAAUCGUGCCACUGCUGGUCUGCGCCAGAUGUACCGUCCUUUCCAAUACGAUUUUCUGUUGCACCUUGUAGUGGAUUCUGCAUAUCAUCUUUCCCACCUAUGGAAUUCUCGGGUGCCAA: 0.31
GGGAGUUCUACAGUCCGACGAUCGAACCCACCAGGAGCACCACAGAGUCCUCCUCUUGGAAGGCAGAACUCCCUGAAAUCUGGAAUCAGGGUGGAAACAGCCUGUUUUUCCCAUUUAAACAGGAGUCCUCUUCUGGAAUUCUCGGGUGCCAA: 0.283
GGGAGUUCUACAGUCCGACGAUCACCUUCACUGUUUUGAGGGGGGCUGAGACAAGACACCCCCGCUUCUAGGUAUCUUCUAGAGCAGUGAUUCUCAACCUUGCUAAUGCUGUGACCCUUUAAUACAUACAGUUUGGAAUUCUCGGGUGCCAA: 0.536
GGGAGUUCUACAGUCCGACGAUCGUGGGCAUGGUGGGCAUCCCAUGCAGCACAACCCAAAUGGACCACCACCACCUUGGAUGCAGCCACCACCACCACCGAUGAACCAGGGCCCCCACCCACCUGGGCACCAUUGGAAUUCUCGGGUGCCAA: 0.526
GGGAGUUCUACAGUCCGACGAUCACAGGGAAGACAUUACACUAGUUGAGGCUACCGAACCUUACAUUUUGCUAGAGCUCAAGUAAUAGAAACUUAGUUUCAGAAUCCUGAAUUCAGCACCUAUUUUGAAUUAAUGGAAUUCUCGGGUGCCAA: 0.517
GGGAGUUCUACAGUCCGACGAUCCCUUCCUCCUCCUUUGCCUAGGAGGCCUUCUCGCAUUUUCUCUAGCUGAUCAGAAUUUUACCAAAAUUCAGAACAUCCUCCAAUUCCACAGUCUCUGGGAGACUUUCCCUUGGAAUUCUCGGGUGCCAA: 0.968
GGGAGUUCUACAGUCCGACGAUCGAUCCCCCUAGUUCAUCUUAAAUUUGUCCGUGGCCCUGGCAAGAUAGCGUACACAAGAUUCCAUGACUCCAGAGCAUCUUGAAGAAACAUACAUAUUUUGAAAGAGGGGAUGGAAUUCUCGGGUGCCAA: 0.758
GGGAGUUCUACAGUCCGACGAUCUUCCUUUUAUGCUAUCACACACUACUGUCACCGAGACACUGACAAAGUGCUGGGUUCUCCAAGAGCGAUGGCGGCGUCUGUGUAGGUGCUCGCCCACCGUUACCCUCUUCUGGAAUUCUCGGGUGCCAA: 0.606
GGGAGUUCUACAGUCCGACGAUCUGAUUGUGUUUCGUAAGAGACAACAUGGCCUCCUAAGGUGCAAUCCUGCCGCUAUAGUGAGCUAAUGUCCUGAAUCCAAAGGCUUCAGAAAAUUGCUUUUGCCUUUUUCAUGGAAUUCUCGGGUGCCAA: 0.343
